Results gathered from unrelated publications.
Parts stem from different laboratories: compare values within a part only.
UniProt P36894, sequence (whole entry, looked up): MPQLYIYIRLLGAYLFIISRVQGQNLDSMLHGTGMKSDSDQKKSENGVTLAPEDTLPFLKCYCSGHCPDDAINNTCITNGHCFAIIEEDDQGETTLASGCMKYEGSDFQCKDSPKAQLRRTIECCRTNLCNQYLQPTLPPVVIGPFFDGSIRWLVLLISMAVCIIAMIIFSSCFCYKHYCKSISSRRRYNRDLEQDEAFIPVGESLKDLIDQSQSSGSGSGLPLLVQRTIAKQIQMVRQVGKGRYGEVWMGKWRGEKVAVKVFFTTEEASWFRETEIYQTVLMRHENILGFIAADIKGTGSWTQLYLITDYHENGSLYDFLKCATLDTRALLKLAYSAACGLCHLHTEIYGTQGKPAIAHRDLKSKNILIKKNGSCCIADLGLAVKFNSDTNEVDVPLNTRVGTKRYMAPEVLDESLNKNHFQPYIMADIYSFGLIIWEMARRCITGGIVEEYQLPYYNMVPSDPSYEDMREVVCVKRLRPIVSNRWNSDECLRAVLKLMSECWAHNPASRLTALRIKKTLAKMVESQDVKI
UniProt P48426, sequence (whole entry, looked up): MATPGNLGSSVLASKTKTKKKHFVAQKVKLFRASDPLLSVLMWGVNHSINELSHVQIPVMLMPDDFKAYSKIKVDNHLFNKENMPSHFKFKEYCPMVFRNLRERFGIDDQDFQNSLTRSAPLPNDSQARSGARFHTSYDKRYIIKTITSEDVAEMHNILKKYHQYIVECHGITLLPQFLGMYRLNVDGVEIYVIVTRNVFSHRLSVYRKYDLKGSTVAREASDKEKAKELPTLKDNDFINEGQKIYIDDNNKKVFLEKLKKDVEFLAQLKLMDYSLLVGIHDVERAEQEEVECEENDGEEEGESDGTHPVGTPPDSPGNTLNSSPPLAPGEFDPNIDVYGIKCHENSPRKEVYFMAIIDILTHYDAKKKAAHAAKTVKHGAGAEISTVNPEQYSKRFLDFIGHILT
UniProt Q52WX2, sequence (whole entry, looked up): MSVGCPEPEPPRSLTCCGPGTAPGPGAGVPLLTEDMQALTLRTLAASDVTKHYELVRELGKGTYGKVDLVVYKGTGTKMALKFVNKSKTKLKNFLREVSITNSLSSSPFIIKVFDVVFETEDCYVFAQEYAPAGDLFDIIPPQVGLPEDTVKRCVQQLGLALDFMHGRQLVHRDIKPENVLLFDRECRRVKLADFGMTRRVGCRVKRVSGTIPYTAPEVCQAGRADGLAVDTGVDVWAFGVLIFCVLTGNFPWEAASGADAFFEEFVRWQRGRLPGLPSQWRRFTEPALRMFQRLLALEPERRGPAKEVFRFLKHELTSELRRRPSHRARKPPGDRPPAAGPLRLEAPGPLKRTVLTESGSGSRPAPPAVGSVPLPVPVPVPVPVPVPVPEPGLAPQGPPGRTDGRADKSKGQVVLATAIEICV
UniProt P53671, sequence (whole entry, looked up): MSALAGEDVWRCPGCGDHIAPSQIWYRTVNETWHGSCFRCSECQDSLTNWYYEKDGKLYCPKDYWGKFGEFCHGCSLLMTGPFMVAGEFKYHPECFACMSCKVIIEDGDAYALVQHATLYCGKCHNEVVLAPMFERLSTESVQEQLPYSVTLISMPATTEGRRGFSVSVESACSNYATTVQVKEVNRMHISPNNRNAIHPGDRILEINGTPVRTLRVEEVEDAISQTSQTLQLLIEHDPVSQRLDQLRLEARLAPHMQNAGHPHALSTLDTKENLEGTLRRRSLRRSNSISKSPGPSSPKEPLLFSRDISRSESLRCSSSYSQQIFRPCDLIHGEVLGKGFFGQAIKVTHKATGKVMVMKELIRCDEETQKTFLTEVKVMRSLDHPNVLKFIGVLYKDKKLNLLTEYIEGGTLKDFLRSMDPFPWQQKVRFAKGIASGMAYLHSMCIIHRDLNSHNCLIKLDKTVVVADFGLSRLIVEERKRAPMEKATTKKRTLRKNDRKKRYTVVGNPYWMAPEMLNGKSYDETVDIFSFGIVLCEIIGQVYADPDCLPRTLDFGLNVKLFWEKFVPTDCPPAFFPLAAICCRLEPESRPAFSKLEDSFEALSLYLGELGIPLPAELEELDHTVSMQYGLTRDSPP

Set 1
Target: Calcium/calmodulin-dependent protein kinase type II subunit alpha (CAMK2A, Homo sapiens, UniProt Q9UQM7)
UniProt Q9UQM7, sequence (whole entry, looked up): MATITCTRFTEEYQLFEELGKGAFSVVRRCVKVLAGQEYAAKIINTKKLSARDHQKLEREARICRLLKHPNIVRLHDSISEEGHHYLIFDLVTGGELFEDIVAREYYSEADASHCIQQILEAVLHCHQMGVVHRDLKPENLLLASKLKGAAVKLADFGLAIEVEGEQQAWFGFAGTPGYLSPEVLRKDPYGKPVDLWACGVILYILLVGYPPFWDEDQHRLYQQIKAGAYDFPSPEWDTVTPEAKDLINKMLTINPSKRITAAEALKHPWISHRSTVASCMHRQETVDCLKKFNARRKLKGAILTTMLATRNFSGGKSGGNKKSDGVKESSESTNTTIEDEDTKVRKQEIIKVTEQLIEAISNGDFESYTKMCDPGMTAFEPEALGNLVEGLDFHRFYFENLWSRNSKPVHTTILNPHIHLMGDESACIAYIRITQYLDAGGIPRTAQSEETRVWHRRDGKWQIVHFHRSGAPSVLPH
Read-out: enzyme activity
Mode: inhibitor
Tested at: 10 µM
Quantity: inhibition
C[C@@H](CO[C@@H]1O[C@H](CO)[C@@H](O)[C@H](O)[C@H]1O)[C@@H]1CC[C@@]2(CC[C@]3(C)[C@H](CC[C@@H]4[C@@]5(C)CC[C@H](O[C@@H]6O[C@H](CO)[C@@H](O)[C@H](O)[C@H]6O[C@@H]6OC[C@@H](O)[C@H](O)[C@H]6O)[C@@](C)(CO[C@@H]6O[C@H](CO)[C@@H](O)[C@H](O)[C@H]6O)[C@@H]5CC[C@]43C)[C@H]2O)CO1: -74%
C[C@H](CC(=O)O)[C@H]1CC[C@H]2[C@@H]3[C@H](O)C[C@@H]4C[C@H](O)CC[C@]4(C)[C@H]3C[C@H](O)[C@]12C: 44%
CC(C)=CCC/C(C)=C/CC/C(C)=C/CC/C(C)=C/CO: 8%
CC(C)(C)NCC(O)c1cc(O)cc(O)c1 (stereo not drawn): -7%
COc1cc(/C=C/C=O)ccc1O: -25%

Set 2
Target: Proto-oncogene tyrosine-protein kinase ROS (ROS1, Homo sapiens, UniProt P08922)
UniProt P08922, sequence (whole entry, looked up): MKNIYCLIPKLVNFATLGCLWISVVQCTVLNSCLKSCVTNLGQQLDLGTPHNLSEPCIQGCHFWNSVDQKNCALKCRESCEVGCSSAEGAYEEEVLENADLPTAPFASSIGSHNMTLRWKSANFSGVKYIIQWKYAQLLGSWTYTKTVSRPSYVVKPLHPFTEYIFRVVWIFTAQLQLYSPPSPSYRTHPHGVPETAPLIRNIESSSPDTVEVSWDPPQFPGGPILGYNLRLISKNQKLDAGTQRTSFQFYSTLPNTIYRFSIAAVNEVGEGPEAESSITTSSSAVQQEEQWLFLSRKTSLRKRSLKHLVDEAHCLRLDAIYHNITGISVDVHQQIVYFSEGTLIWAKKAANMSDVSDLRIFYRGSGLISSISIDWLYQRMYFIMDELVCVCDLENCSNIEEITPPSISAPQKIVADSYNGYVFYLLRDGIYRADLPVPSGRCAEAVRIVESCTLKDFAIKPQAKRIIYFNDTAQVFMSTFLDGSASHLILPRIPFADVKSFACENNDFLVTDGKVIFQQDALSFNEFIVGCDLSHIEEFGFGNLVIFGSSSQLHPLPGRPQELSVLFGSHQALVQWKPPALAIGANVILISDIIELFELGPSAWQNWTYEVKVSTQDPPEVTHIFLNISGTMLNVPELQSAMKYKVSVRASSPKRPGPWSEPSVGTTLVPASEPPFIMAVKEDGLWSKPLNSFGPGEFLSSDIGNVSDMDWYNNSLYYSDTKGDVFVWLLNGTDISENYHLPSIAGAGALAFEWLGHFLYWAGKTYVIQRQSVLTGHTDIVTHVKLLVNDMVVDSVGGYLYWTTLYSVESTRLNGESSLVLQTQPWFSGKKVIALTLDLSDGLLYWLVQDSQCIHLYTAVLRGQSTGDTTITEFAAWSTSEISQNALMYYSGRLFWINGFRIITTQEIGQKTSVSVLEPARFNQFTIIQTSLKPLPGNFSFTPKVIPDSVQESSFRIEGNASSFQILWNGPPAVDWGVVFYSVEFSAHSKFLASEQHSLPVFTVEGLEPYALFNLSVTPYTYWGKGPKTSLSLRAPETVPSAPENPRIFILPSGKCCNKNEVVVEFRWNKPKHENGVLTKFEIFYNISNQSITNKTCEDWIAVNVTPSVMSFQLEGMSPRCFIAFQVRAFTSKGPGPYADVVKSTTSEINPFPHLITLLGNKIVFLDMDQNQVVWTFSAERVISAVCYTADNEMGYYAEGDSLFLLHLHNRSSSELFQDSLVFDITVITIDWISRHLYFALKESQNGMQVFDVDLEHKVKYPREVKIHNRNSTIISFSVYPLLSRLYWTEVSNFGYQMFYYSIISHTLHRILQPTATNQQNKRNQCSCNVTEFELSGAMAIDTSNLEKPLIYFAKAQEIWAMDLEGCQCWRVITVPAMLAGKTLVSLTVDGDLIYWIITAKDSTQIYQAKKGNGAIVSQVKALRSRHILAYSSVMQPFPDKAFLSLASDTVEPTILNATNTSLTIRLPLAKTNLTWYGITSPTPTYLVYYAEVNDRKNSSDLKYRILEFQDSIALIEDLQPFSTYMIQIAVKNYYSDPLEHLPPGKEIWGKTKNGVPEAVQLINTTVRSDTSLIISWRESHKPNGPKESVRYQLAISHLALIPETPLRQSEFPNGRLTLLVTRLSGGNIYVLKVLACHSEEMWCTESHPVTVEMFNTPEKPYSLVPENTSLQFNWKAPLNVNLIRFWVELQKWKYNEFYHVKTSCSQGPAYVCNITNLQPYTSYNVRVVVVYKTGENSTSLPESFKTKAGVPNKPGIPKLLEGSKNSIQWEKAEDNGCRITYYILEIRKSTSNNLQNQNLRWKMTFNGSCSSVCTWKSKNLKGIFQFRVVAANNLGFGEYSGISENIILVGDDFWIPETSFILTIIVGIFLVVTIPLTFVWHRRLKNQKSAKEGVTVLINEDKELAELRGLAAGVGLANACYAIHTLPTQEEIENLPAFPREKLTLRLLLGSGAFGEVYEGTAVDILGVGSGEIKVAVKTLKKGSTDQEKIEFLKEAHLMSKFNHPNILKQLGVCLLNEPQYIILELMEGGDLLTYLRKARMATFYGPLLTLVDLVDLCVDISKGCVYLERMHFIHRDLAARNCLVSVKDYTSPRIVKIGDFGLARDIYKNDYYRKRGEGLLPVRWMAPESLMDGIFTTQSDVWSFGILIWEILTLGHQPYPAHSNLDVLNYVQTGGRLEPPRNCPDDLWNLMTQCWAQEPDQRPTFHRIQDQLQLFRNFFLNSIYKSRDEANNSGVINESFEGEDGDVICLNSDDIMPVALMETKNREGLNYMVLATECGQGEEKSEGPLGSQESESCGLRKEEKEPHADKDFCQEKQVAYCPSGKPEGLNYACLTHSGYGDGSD
Read-out: enzyme activity
Mode: inhibitor
Tested at: 0.5 µM
Baseline: control
Quantity: remaining activity
Cc1cncc2cccc(S(=O)(=O)N3CCCN(C(=O)CN)C[C@@H]3C)c12: 60.3%
Nc1ncnc2c1cnn2-c1ccccc1: 94.2%
Nc1nc(Nc2ccc(S(N)(=O)=O)cc2)nn1C(=O)c1c(F)cccc1F: 39.5%
CCc1[nH]c(-c2ccc(OC)cc2)nc1-c1ccncc1: 91.8%
NC(=O)c1ccc(N(C(N)=O)c2c(F)cccc2F)nc1-c1ccc(F)cc1F: 95%

Set 3
SMILES: CC(C)S(=O)(=O)c1ccc2nccc(Nc3ccc4sc(C5CCCC5)nc4c3)c2c1.Cl
Read-out: kinase activity
Mode: inhibitor
Tested at: 1 µM
Quantity: remaining activity
LIM domain kinase 2 (LIMK2, Homo sapiens, UniProt P53671): 83%
PIP4K2A (Homo sapiens, UniProt P48426): 97%
STK10 (Homo sapiens, UniProt O94804): 96%
BMP2K (Homo sapiens, UniProt Q9NSY1): 99%
SGK1 (Homo sapiens, UniProt O00141): 112%
RPS6KB1 (Homo sapiens, UniProt P23443): 109%
GRK3 (Homo sapiens, UniProt P35626): 102%

Set 4
SMILES: O=C(NCCCC1CCCCC1)c1ccc(CNC(=O)c2cnn(-c3ccccc3)c2C(F)(F)F)cc1
Technique: competition with immobilised ligand
Tested at: 0.1 µM
Quantity: remaining binding
AKT2 (Homo sapiens, UniProt P31751); cell-free assay: 100%
DCLK1 (Homo sapiens, UniProt O15075); cell-free assay: 100%
EPHA2 (Homo sapiens, UniProt P29317); cell-free assay: 80%
CSNK1G1 (Homo sapiens, UniProt Q9HCP0); cell-free assay: 100%
SBK1 (Homo sapiens, UniProt Q52WX2); cell-free assay: 100%
LTK (Homo sapiens, UniProt P29376); cell-free assay: 100%
PIK3C2B (Homo sapiens, UniProt O00750); cell-free assay: 86%
STK36 (Homo sapiens, UniProt Q9NRP7); cell-free assay: 100%
SYK (Homo sapiens, UniProt P43405); cell-free assay: 100%
ERBB4 (Homo sapiens, UniProt Q15303); cell-free assay: 100%
MAP3K5 (Homo sapiens, UniProt Q99683); cell-free assay: 91%
Tyrosine-protein kinase ABL1, phosphorylated (ABL1, Homo sapiens, UniProt P00519, F317L); cell-free assay: 82%
PIK3CA (Homo sapiens, UniProt P42336, Q546K); cell-free assay: 67%
MAP4K5 (Homo sapiens, UniProt Q9Y4K4); cell-free assay: 88%
BMPR1A (Homo sapiens, UniProt P36894); binding: 100%
FLT3 (Homo sapiens, UniProt P36888, D835Y); cell-free assay: 100%
MARK3 (Homo sapiens, UniProt P27448); cell-free assay: 94%
PTK2B (Homo sapiens, UniProt Q14289); cell-free assay: 93%
MARK1 (Homo sapiens, UniProt Q9P0L2); cell-free assay: 100%

Set 5
Species: mouse
Sample: microsomes or S9
Tested at: 2 µM
Time: 0.5 h
Quantity: remaining compound
CC(=O)Nc1cccc(NS(=O)(=O)c2c(C)nc(O)[nH]c2=O)c1: > 100%
COc1cc2c(Nc3ccc(Br)cc3F)ncnc2cc1OCCCN1CCOC(CO)C1 (stereo not drawn): 75.8%
Fc1ccc(-c2ccnc3nc(-c4ccncc4)nn23)cc1: 42.6%
COc1cc(Br)c(S(=O)(=O)NC2CCN(C(=O)c3ccccc3)CC2)cc1OC: 94.1%
COc1ccc(F)c(-c2nc(COc3ccc(-n4cncn4)cc3)c(C)o2)c1: 54.1%
O=c1[nH]c2cc(S(=O)(=O)N3CC[C@H]4[C@H](C3)OCc3cnnn34)ccc2o1: 94%
CCn1nccc1CN(C)S(=O)(=O)c1ccc(Br)s1: 4.81%
Cc1ccc(-c2nc3scc(CCNS(=O)(=O)c4ccc(Br)cc4)n3n2)cc1: 1.09%
O=C1CC2(CCN(C(=O)CSC34CC5CC(CC(C5)C3)C4)CC2)CN1: 0.48%

Excerpt of the above (set 4):
BMPR1A (Homo sapiens, UniProt P36894); binding: 100%
SBK1 (Homo sapiens, UniProt Q52WX2); cell-free assay: 100%
